# Experimental data collected from several papers.
# Compare with care: the assays were run in different laboratories. Several values in a cell are separate wells, animals, samples, runs or records. ± gives the spread as reported.
# Aryl hydrocarbon receptor: Aryl hydrocarbon receptor (Danio rerio, UniProt Q9YGV3)
# SET Y135C: Protein SET (SET, Homo sapiens, UniProt Q01105, Y135C)
# Chain of UniProt Q01105 (whole entry, unmodified, looked up): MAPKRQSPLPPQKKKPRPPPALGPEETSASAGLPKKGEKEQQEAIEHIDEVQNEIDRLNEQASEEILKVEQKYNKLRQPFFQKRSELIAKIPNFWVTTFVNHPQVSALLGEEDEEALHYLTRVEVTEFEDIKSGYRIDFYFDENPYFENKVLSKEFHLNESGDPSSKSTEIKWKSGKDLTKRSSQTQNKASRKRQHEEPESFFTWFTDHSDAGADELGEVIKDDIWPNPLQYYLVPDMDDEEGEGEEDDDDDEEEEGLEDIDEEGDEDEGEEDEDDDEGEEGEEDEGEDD
# T1: ssDNA, aptamer; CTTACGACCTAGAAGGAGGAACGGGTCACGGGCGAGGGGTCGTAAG
# Chain of UniProt P51575 (whole entry, unmodified, looked up): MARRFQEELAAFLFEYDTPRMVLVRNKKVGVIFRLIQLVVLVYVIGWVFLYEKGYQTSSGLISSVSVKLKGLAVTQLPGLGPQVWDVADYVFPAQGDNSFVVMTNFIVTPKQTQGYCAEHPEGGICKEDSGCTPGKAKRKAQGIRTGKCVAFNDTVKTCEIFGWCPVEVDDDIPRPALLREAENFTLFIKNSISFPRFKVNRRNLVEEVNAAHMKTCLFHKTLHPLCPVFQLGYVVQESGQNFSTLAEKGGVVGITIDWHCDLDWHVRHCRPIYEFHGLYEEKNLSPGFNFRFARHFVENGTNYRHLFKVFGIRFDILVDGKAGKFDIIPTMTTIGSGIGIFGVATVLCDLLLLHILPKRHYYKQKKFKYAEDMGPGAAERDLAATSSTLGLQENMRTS
# Chain of UniProt O15305 (whole entry, looked up): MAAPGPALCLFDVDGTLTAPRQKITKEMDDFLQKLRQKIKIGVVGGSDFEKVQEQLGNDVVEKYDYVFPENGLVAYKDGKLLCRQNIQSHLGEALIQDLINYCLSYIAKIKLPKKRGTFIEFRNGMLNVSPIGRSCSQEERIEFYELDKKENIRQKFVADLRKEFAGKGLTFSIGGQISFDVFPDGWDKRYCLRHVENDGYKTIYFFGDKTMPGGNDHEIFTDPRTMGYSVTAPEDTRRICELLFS
# Chain of UniProt P11388 (whole entry, looked up): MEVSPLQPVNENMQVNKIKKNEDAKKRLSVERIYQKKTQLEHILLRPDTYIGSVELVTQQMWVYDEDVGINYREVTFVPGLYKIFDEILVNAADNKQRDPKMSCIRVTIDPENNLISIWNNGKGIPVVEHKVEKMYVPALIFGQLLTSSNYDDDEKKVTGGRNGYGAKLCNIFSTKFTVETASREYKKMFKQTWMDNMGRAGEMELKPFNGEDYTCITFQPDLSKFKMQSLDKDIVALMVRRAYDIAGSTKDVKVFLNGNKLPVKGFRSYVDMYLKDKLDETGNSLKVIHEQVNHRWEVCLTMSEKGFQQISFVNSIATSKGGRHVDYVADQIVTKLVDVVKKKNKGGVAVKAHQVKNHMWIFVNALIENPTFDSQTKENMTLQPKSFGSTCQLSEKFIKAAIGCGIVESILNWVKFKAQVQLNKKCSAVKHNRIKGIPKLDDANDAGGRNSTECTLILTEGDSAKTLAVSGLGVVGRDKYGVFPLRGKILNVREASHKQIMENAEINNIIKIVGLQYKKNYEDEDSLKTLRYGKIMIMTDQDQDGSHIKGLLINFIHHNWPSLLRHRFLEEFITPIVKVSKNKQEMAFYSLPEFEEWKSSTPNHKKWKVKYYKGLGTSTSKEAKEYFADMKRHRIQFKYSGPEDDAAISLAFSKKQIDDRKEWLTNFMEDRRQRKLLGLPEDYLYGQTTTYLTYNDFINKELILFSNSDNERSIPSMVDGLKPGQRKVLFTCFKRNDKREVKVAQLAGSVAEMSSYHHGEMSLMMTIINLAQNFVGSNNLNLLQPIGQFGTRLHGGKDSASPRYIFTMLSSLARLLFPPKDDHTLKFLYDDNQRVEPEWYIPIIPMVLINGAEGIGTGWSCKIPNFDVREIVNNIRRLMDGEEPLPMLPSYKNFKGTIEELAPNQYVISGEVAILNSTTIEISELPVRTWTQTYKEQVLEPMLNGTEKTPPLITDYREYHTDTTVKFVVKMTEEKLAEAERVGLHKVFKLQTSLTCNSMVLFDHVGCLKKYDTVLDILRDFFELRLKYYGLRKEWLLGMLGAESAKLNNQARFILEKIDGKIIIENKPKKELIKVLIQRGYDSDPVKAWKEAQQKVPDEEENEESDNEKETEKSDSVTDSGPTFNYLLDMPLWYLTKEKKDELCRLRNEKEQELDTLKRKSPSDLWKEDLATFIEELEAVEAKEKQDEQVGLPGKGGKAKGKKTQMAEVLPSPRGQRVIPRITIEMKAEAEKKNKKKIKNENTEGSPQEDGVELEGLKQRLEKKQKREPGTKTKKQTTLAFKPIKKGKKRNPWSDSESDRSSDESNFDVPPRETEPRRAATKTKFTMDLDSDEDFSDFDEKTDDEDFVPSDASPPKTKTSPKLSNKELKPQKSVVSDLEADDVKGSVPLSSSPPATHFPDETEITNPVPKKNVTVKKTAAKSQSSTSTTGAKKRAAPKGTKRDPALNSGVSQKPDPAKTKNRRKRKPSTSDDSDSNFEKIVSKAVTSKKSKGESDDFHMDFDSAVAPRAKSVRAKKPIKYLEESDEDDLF
# Chain of UniProt P00441 (whole entry, unmodified, looked up): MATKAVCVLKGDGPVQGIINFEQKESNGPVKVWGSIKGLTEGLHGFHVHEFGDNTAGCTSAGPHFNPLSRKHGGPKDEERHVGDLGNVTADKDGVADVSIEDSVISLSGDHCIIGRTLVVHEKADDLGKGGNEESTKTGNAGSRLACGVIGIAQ
# Chain of UniProt P35869 (whole entry, looked up): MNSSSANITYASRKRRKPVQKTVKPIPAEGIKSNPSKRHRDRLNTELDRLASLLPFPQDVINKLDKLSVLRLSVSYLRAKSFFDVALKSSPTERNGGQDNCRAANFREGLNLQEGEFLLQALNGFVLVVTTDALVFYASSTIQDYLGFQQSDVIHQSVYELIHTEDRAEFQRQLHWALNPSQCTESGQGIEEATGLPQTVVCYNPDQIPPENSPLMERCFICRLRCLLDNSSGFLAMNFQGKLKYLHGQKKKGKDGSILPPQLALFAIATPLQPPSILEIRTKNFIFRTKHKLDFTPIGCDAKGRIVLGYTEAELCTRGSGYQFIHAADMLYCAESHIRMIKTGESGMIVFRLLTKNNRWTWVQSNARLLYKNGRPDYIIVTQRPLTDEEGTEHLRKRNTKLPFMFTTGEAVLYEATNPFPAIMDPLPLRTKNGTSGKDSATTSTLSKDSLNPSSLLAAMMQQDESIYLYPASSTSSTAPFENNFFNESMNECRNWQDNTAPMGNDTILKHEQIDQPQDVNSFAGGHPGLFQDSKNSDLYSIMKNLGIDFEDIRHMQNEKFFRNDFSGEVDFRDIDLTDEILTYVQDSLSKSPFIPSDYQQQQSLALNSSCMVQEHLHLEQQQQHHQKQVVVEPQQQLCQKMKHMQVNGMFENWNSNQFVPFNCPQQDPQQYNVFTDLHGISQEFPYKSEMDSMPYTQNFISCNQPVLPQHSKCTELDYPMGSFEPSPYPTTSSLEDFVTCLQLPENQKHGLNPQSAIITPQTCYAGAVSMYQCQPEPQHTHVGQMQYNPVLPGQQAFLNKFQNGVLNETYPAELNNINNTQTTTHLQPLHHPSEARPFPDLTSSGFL
# Chain of UniProt P25090 (whole entry, looked up): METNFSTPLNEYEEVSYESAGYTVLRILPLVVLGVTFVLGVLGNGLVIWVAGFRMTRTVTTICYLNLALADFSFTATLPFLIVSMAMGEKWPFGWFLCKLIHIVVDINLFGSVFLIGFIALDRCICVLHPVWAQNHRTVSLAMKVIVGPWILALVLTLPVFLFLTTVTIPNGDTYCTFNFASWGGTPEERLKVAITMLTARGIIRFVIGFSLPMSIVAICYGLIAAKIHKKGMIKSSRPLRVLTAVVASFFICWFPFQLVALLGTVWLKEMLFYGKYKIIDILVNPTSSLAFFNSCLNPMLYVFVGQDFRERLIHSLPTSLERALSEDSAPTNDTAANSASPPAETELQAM
# Chain of UniProt Q92995 (whole entry, looked up): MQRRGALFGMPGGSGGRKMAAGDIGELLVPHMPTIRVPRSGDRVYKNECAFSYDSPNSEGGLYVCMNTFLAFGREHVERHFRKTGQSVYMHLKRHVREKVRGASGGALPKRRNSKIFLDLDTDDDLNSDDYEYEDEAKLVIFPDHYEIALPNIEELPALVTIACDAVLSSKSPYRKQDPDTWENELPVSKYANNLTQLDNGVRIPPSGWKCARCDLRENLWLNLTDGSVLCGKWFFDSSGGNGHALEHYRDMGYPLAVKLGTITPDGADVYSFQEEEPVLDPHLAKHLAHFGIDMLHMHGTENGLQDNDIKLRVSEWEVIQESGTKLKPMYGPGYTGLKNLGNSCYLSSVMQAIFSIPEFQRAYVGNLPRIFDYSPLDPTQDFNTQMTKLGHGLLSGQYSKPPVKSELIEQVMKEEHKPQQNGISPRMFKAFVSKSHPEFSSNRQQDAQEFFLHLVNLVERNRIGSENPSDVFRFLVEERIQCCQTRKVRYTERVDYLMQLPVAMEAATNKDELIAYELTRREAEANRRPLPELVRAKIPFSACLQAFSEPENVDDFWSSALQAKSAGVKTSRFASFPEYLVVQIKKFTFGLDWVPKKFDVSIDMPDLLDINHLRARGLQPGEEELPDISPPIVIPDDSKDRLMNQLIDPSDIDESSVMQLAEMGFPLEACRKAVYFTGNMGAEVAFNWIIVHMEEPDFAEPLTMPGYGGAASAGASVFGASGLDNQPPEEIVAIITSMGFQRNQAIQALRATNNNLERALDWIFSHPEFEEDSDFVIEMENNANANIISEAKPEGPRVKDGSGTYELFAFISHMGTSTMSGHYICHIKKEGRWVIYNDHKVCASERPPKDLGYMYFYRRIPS
# Chain of UniProt Q9HC97 (whole entry, looked up): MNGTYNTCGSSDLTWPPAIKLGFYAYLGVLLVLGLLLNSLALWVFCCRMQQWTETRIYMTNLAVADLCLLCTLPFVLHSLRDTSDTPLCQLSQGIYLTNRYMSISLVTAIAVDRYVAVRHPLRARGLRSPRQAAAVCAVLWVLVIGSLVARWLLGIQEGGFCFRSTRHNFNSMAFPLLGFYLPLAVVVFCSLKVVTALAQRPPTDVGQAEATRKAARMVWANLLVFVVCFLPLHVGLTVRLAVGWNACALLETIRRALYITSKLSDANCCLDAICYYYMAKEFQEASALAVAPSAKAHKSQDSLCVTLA
SMILES,tested on,assay,test system,setting,how to read,quantity,result
NCCCCC(=O)O,"Sodium- and chloride-dependent taurine transporter (SLC6A6, Homo sapiens, UniProt P31641, G62A)","binding, microscale thermophoresis",,"250 µM, room temperature, together with: 50 nM labelled protein",higher = more binding,normalised MST signal,0.0181
Oc1ccccc1-c1n[nH]cc1-c1ccnc2ccccc12,"Serine/threonine-protein kinase ATG1 (ATG1, Candida albicans, UniProt Q5A649)","kinase binding, MIB/MS competition",Candida albicans lysate,1 µM,"relative to: DMSO, negative = stronger binding",log2 fold change,0.06
O=c1nc(SCc2cc(F)cc(C(F)(F)F)c2)nc(SCc2ccc3sccc3c2)[nH]1,"DNA topoisomerase 2-alpha (TOP2A, Homo sapiens, UniProt P11388)",ATPase activity,,"1.95 µM, together with: ATP 0.075 mM",,ATP hydrolysis rate,0.819 µM/min and 0.695 µM/min
Nc1ncnc2c1ncn2[C@@H]1O[C@H](COP(=O)(O)OP(=O)(O)OP(=O)(O)O)[C@@H](O)[C@H]1O,"T1, ssDNA, aptamer",ITC,,,,Kd,630 nM
CC[C@@H]1[C@H](F)C(=O)N[C@@H]1COc1nccc2cc(C(N)=O)c(OC)cc12,"Serine/threonine-protein kinase 16 (STK16, Homo sapiens, UniProt O75716)","ATP-site probe binding, ActivX profiling",THP-1 cell lysate,"0.2 mM, Lys1 site",,inhibition,22.2%
c1cnn2ncc(-c3ccnc(N4CCC45COC5)n3)c2c1,"Tyrosine-protein kinase ABL1 (ABL1, Homo sapiens, UniProt P00519, F317L)",KINOMEscan,,1 µM,relative to: control,remaining binding,55%
O=C(CNc1cccc2c1C(=O)N(C1CCC(=O)NC1=O)C2=O)NCCCCCCN1CCc2c(c3ccccc3n2Cc2ccc(C(=O)NO)cc2)C1 (stereo not drawn),"Protein deacetylase HDAC6 (HDAC6, Homo sapiens, UniProt Q9UBN7)","degrader, western blot",MM1.S,"5 µM, 24 h",,degradation,96%
CSCC[C@H](NC(=O)[C@H](CCC(=O)O)NC(=O)[C@H](CCC(N)=O)NC(=O)[C@H](CO)NC(=O)CCCC[C@@H]1SC[C@@H]2NC(=O)N[C@@H]21)C(=O)N[C@H](C(=O)N[C@@H](Cc1c[nH]cn1)C(=O)N[C@@H](CC(C)C)C(=O)N[C@H](C(=O)N[C@@H](CC(N)=O)C(=O)N[C@@H](CCCCN)C(=O)N[C@@H](CCC(=O)O)C(=O)N1CCC[C@H]1C(=O)N[C@@H](CO)C(=O)N[C@@H](CCC(=O)O)C(=O)N[C@H](C(=O)N1CCC[C@H]1C(=O)N[C@@H](CC(=O)O)C(=O)N[C@@H](CCC(N)=O)C(=O)N[C@@H](CS)C(=O)N[C@@H](CCSC)C(=O)N[C@H](C(=O)N[C@@H](C)C(=O)N[C@@H](CC(=O)O)C(=O)N[C@@H](CCC(=O)O)C(=O)O)[C@@H](C)O)[C@@H](C)O)C(C)C)C(C)C,mouse Tiam2 R693A R716A,SPR,,concentration not given,relative to: wild type,relative binding affinity,4%
CC[C@H](C)[C@H](NC(=O)[C@H](CCCNC(=N)N)NC(=O)[C@H](Cc1c[nH]cn1)NC(=O)[C@H](CCCNC(=N)N)NC(=O)[C@H](CC(=O)O)NC(=O)[C@H](CC(=O)O)NC(=O)[C@@H](NC(=O)[C@H](CC(=O)O)NC(=O)[C@@H]1CCCN1C(=O)[C@@H](N)CC(C)C)[C@@H](C)O)C(=O)N[C@@H](CCC(=O)O)C(=O)N[C@@H](CCC(=O)O)C(=O)N[C@@H](CCCCN)C(=O)N[C@@H](CCCNC(=N)N)C(=O)N[C@@H](CCCCN)C(=O)N[C@@H](CCCNC(=N)N)C(=O)N[C@H](C(=O)N[C@@H](Cc1ccc(O)cc1)C(=O)N[C@@H](CCC(=O)O)C(=O)N[C@H](C(=O)N[C@@H](Cc1ccccc1)C(=O)N[C@@H](CCCCN)C(=O)N[C@@H](CO)C(=O)N[C@H](C(=O)N[C@@H](CCSC)C(=O)N[C@@H](CCCCN)C(=O)N[C@@H](CCCCN)C(=O)N[C@@H](CO)C(=O)N1CCC[C@H]1C(=O)N[C@@H](Cc1ccccc1)C(=O)N[C@@H](CC(N)=O)C(=O)NCC(=O)N1CCC[C@H]1C(=O)O)[C@@H](C)CC)[C@@H](C)O)[C@@H](C)O,"NF-kappa-B inhibitor alpha (Homo sapiens, UniProt P25963)","binding, ITC",,"293 K, 150 mM NaCl",,-TΔS,-4.4 ± 0.4 kcal/mol
O=C1C[C@@H](c2ccccc2)Oc2cc(O)cc(O)c21,Aryl hydrocarbon receptor,"reporter gene, agonist, luciferase reporter",ZF-4,4.572 µM,relative to: vehicle control,fold change,0.976
CNC[C@H](O)c1cccc(O)c1,"Alpha-1D adrenergic receptor (ADRA1D, Homo sapiens, UniProt P25100)","calcium mobilization, agonist","COS-7, stably expressing receptor",,relative to: 3 µM ionomycin,Emax,~25%
COc1cc(C#CC(=O)c2ccccc2OC)ccc1O,"mvfR (Pseudomonas aeruginosa, UniProt Q9I4X0)",receptor binding,,"concentration not given, 1.5 h, together with: PQS at 1:1 ratio",relative to: control,binding,84%
CC1=Nc2ccc(Cl)cc2C(c2ccc(C)cc2)N1CCCN(C)C (stereo not drawn),"Trypanothione reductase (TPR, Trypanosoma brucei brucei, UniProt P39051)","enzyme activity, mixed inhibitor, DTNB-coupled kinetic",,enzyme-substrate complex,,Ki′,1500 nM
O=C(O)CC1Oc2ccccc2NC1=O (stereo not drawn),"Ubiquitin carboxyl-terminal hydrolase 13, ZnF-UBD domain (USP13, Homo sapiens, UniProt Q92995)",,,,,Kd,306000 nM
Nc1nc2c(ncn2[C@@H]2O[C@H](COP(=O)(O)O)[C@@H](O)[C@H]2O)c(=O)[nH]1,"GUK1 (Homo sapiens, UniProt Q16774)",ITC,,concentration not given,,-TΔS of binding,2.57 kcal/mol
Nc1nnc(-c2ccccc2O)cc1N1CCN(Cc2ccc(OCCOCCNc3cccc4c3C(=O)N(C3CCC(=O)NC3=O)C4=O)c(F)c2)CC1 (stereo not drawn),"SWI/SNF-related matrix-associated actin-dependent regulator of chromatin subfamily A member 2 (SMARCA2, Homo sapiens, UniProt P51531)",immunoblot,"mouse, NCI-H2126 xenograft, tumour lysate","dose not given, end of study",relative to: vehicle,decrease in protein level,34%
CCCCCCCCCCCCC/C=C/[C@@H](O)[C@H](CO)NC(=O)CCCCCCCCCCCCCCCCCCC,"Protein SET (SET, Homo sapiens, UniProt Q01105, K222D)","lipid binding, GFP pull-down LC-MS/MS",A549 overexpressing GFP-tagged protein,,relative to: eluate plus flow-through,lipid fraction bound,11%
Cn1c2c(c3ccc(Cl)c(Cl)c31)C(C#N)C1(CCN(C(=O)OC(C)(C)C)CC1)NC2=O (racemic),"Serine/threonine-protein kinase VRK3 (VRK3, Homo sapiens, UniProt Q8IV63)","thermal stability, thermal shift",,10 µM,higher = stronger binding,delta Tm,0 °C
CCCCCCCCCCCCC/C=C/[C@@H](O)[C@H](CO)NC(=O)CCCCCCCCCCCCCCC,SET Y135C,"lipid binding, GFP pull-down LC-MS/MS",A549 overexpressing GFP-tagged protein,unit not given,relative to: vector-transfected cells,bound endogenous lipid,0.4
Nc1ccc2ccc3cccc4ccc1c2c34,Aryl hydrocarbon receptor,"reporter gene, agonist, luciferase reporter",ZF-4,123.5 µM,relative to: vehicle control,fold change,1.76
CC(=O)OCc1nn(C)c2nc(N)[nH]c(=O)c2c1=O,"Dihydropteroate synthase (folP, Bacteria, UniProt P0AC13)",CETSA HiBiT,"Escherichia coli, cell lysate",concentration not given,relative to: DMSO,melting temperature shift,15.1 °C
CCCCCCCCCCCCC/C=C/[C@@H](O)[C@H](CO)NC(=O)CCCCCCCCCCCCC,SET Y135C,"lipid binding, GFP pull-down LC-MS/MS",A549 overexpressing GFP-tagged protein,,relative to: eluate plus flow-through,lipid fraction bound,6.6%
Nc1ncnc2c1ncn2[C@@H]1O[C@H](COP(=O)(O)CP(=O)(O)OP(=O)(O)O)[C@@H](O)[C@H]1O,"P2X purinoceptor 1 (P2RX1, Homo sapiens, UniProt P51575, K136W)",calcium influx,,31.6 nM,relative to: ionomycin response,calcium influx,3.54% and 10.4% and 8.81%
[O-][S+]1CCCCS1 (stereo not drawn),"Superoxide dismutase [Cu-Zn] (SOD1, Homo sapiens, UniProt P00441, G94A)",intact protein LC-MS,"SOD1 G93A transgenic mice, whole blood","intravenous, 10 mg/kg, 2 h",,target engagement,56.4% and 55%
CCN1CCC[C@H]1CNC(=O)c1c(O)c(Cl)cc(Cl)c1OC,"G-protein coupled receptor 35 (GPR35, Homo sapiens, UniProt Q9HC97)","β-arrestin recruitment, TANGO luminescence",,concentration not given,relative to: basal luminescence,log2 fold change,-0.08
N#Cc1ccc(C[C@@H](Nc2nnc(-c3ccc(F)cc3)s2)C(=O)N2CCc3ccccc32)cc1,"N-formyl peptide receptor 2 (FPR2, Homo sapiens, UniProt P25090)",cell-based,,concentration not given,,activity,inactive
CCCCCCCCCCCCC/C=C/[C@@H](O)[C@H](CO)NC(=O)CCCCCCCCCCCCCCCCC,"Protein SET (SET, Homo sapiens, UniProt Q01105)","lipid binding, GFP pull-down LC-MS/MS",A549 overexpressing GFP-tagged protein,ER-targeted construct,relative to: eluate plus flow-through,lipid fraction bound,34.4%
COC(=O)c1csc(C(=O)c2c[nH]c3ccccc23)n1,"Aryl hydrocarbon receptor (AHR, Homo sapiens, UniProt P35869)","reporter gene, agonist, XRE luciferase reporter",HepG2,unit not given,relative to: vehicle,Emax,54 ± 3
O=C(COP(=O)(O)O)[C@@H](O)[C@H](O)[C@H](O)COP(=O)(O)O,"Phosphomannomutase 2 (PMM2, Homo sapiens, UniProt O15305)",,,"0.05 mM, unit not given",relative to: activity at 0 mM set to 100,enzyme activity,97.1 and 97.6 and 98.7
CC(C)[C@H](NC(=O)[C@H](Cc1ccc(O)cc1)NC(=O)[C@H](Cc1ccc(O)cc1)NC(=O)[C@@H]1CCCN1C(=O)[C@H](CCC(=O)O)NC(=O)[C@H](CCC(=O)O)NC(=O)[C@H](Cc1c[nH]c2ccccc12)NC(=O)[C@@H]1CCCN1C(=O)[C@@H](NC(=O)[C@H](CCC(N)=O)NC(=O)c1ccc2c(c1)C(=O)OC21c2ccc(O)cc2Oc2cc(O)ccc21)C(C)C)C(=O)N[C@H](C(=O)N[C@@H](CCCCN)C(=O)N[C@@H](CCCCN)C(=O)N[C@@H](CO)C(=O)N[C@@H](CO)C(=O)NCC(=O)NCC(N)=O)C(C)C,,,"human, plasma","intravenous infusion, 100 mg, predose, day 1",,plasma concentration,not detected
Cn1cc(-c2ccc(-c3cncc(Cl)c3N3CCC4(CCNC4=O)CC3)cc2)cn1,COLO 205,"gene expression, microarray, item: DPP4 mRNA",,"concentration not given, 2 h",relative to: untreated cells,log2 fold change,2.18
Cc1cccc2c1ccc1cc(C(C)C)ccc12,Aryl hydrocarbon receptor,"reporter gene, agonist, luciferase reporter",ZF-4,30000 µM,relative to: vehicle control,fold change,0.585
F[C@@H]1CCN(c2ccc(-c3ccc4sc(-c5cccnc5)cc4n3)cn2)C1,"Alpha-synuclein, aggregates (SNCA, Homo sapiens, UniProt P37840)",[3H] homologous binding,human PD brain homogenate,together with: [3H]compound,,Bmax,55 ± 9 nM

# Repeated from above:
SMILES,tested on,assay,test system,setting,how to read,quantity,result
O=C(COP(=O)(O)O)[C@@H](O)[C@H](O)[C@H](O)COP(=O)(O)O,"Phosphomannomutase 2 (PMM2, Homo sapiens, UniProt O15305)",,,"0.05 mM, unit not given",relative to: activity at 0 mM set to 100,enzyme activity,97.1 and 97.6 and 98.7
CC(C)[C@H](NC(=O)[C@H](Cc1ccc(O)cc1)NC(=O)[C@H](Cc1ccc(O)cc1)NC(=O)[C@@H]1CCCN1C(=O)[C@H](CCC(=O)O)NC(=O)[C@H](CCC(=O)O)NC(=O)[C@H](Cc1c[nH]c2ccccc12)NC(=O)[C@@H]1CCCN1C(=O)[C@@H](NC(=O)[C@H](CCC(N)=O)NC(=O)c1ccc2c(c1)C(=O)OC21c2ccc(O)cc2Oc2cc(O)ccc21)C(C)C)C(=O)N[C@H](C(=O)N[C@@H](CCCCN)C(=O)N[C@@H](CCCCN)C(=O)N[C@@H](CO)C(=O)N[C@@H](CO)C(=O)NCC(=O)NCC(N)=O)C(C)C,,,"human, plasma","intravenous infusion, 100 mg, predose, day 1",,plasma concentration,not detected
Cn1cc(-c2ccc(-c3cncc(Cl)c3N3CCC4(CCNC4=O)CC3)cc2)cn1,COLO 205,"gene expression, microarray, item: DPP4 mRNA",,"concentration not given, 2 h",relative to: untreated cells,log2 fold change,2.18
Cc1cccc2c1ccc1cc(C(C)C)ccc12,Aryl hydrocarbon receptor,"reporter gene, agonist, luciferase reporter",ZF-4,30000 µM,relative to: vehicle control,fold change,0.585
F[C@@H]1CCN(c2ccc(-c3ccc4sc(-c5cccnc5)cc4n3)cn2)C1,"Alpha-synuclein, aggregates (SNCA, Homo sapiens, UniProt P37840)",[3H] homologous binding,human PD brain homogenate,together with: [3H]compound,,Bmax,55 ± 9 nM
